Measured values from different studies.
“And” joins repeats or separate records; there may be more than shown.

Structure (SMILES) | target or system | test | test system | setting | scale | measurement | result
Cc1ncsc1-c1ccc(C(C)NC(=O)C2CC(O)CN2C(=O)C(NC(=O)CCCCCCCCCCN2CCCC(Nc3ncc(Cl)c(Nc4ccccc4S(=O)(=O)C(C)C)n3)C2)C(C)(C)C)cc1 (stereo not shown) | 22Rv1 | RNA-seq, measured: RHBDD1 mRNA |  | concentration not given | baseline: DMSO | log2 fold change | -1.25
CC(C)c1ccc(N(C)c2ccc3c(c2)OCC[C@H]3CNc2cnccc2C(=O)O)cc1 | SNU-C1 | cell viability, CellTiter-Glo |  | 7 days |  | IC50 | ≥ 10 µM
COc1ccccc1-c1ccncc1C(=O)Nc1nnc(OCc2ccc(Cl)cc2)s1 | PEO1 BRCA2-mutant |  |  | 0.5 µM, with: olaparib 0.125 µM |  | colony survival | 10.8%
CC(=O)N(Cc1cccnc1)c1cccc(-c2nc3ccccc3s2)c1 | Trypanosoma cruzi | reporter mRNA translation, inhibitor, measured: capped polyadenylated Renilla luciferase mRNA | cell-free extract | concentration not given | baseline: positive over negative control | translation activity | 109% and 95.2% and 98.3% and 107%
CCN(CC)CC(=O)Nc1cccc(-n2cc(-c3ccc4ccc(-c5cn(-c6cccc(NC(=O)CN(CC)CC)c6)nn5)cc4c3)nn2)c1 | RCC4 | PCR angiogenesis array, measured: NRP2 |  | 5 x IC50, 2 h, normoxia | baseline: untreated | fold regulation | 1.03
Cn1ncc2cc(-c3cncc(Cl)c3N3CCC4(CCNC4=O)CC3)ccc21 | LS174T | gene expression, microarray, measured: PADI1 mRNA |  | concentration not given, 24 h | baseline: untreated cells | log2 fold change | 2.04
CN1CCCNC(=O)c2cccc(c2)C(=O)NCCCN(C)CCCNc2cccc3c2C(=O)c2cccc(c2C3=O)NCCC1 | SAS | RNA-Seq, measured: AARS2 mRNA |  | 1 µM, 6 h | baseline: untreated cells | log2 fold change | -1.4
CNS(=O)(=O)Nc1nccc(Cc2c(C)c3ccc(Oc4ncccc4F)cc3oc2=O)c1F | TF-1 | cell viability |  | 7 days |  | IC50 | 0.00972 µM
CCOc1cncc(-c2ccc(NC(=O)C3(c4ccnc(NS(=O)(=O)C5CC5)n4)CCOCC3)nc2)n1 | SNU-398 | cell proliferation, CellTiter-Glo |  | 72 h |  | IC50 | 0.289 µM
COc1ccc(CN2CCCC(N3CCN(c4cccc(Cl)c4)CC3)C2)cc1OC (stereo not shown) | Trypanosoma cruzi | reporter mRNA translation, inhibitor, measured: capped polyadenylated Renilla luciferase mRNA | cell-free extract | concentration not given | baseline: positive over negative control | translation activity | 107% and 101% and 83.2% and 104%

Excerpt of the above:
Structure (SMILES) | target or system | test | test system | setting | scale | measurement | result
COc1ccc(CN2CCCC(N3CCN(c4cccc(Cl)c4)CC3)C2)cc1OC (stereo not shown) | Trypanosoma cruzi | reporter mRNA translation, inhibitor, measured: capped polyadenylated Renilla luciferase mRNA | cell-free extract | concentration not given | baseline: positive over negative control | translation activity | 107% and 101% and 83.2% and 104%
